# Measurements from different studies.
# Each numbered part is a random draw from the data of one study; scales do not carry over between parts.
# UniProt P15056, sequence (whole entry, unmodified, looked up): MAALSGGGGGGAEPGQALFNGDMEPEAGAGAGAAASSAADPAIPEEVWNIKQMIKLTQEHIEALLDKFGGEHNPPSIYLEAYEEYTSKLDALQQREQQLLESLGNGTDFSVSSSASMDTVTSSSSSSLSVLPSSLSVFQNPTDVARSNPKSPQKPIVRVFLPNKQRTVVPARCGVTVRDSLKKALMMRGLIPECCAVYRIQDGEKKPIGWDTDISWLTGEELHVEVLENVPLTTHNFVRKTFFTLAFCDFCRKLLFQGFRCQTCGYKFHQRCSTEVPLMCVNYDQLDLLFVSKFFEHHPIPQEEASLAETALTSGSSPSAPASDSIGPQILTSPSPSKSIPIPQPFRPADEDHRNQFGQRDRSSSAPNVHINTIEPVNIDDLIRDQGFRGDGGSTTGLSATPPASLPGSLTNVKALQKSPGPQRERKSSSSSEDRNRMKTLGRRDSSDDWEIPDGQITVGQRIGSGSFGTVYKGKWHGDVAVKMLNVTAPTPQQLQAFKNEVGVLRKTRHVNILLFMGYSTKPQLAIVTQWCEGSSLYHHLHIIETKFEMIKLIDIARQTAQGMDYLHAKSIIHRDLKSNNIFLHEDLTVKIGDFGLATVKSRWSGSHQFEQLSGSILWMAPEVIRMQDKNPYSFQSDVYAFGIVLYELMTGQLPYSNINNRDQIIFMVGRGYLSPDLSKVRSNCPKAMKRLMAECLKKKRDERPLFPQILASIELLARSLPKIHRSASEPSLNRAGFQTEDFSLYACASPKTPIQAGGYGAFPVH
# UniProt Q15375, sequence (whole entry, looked up): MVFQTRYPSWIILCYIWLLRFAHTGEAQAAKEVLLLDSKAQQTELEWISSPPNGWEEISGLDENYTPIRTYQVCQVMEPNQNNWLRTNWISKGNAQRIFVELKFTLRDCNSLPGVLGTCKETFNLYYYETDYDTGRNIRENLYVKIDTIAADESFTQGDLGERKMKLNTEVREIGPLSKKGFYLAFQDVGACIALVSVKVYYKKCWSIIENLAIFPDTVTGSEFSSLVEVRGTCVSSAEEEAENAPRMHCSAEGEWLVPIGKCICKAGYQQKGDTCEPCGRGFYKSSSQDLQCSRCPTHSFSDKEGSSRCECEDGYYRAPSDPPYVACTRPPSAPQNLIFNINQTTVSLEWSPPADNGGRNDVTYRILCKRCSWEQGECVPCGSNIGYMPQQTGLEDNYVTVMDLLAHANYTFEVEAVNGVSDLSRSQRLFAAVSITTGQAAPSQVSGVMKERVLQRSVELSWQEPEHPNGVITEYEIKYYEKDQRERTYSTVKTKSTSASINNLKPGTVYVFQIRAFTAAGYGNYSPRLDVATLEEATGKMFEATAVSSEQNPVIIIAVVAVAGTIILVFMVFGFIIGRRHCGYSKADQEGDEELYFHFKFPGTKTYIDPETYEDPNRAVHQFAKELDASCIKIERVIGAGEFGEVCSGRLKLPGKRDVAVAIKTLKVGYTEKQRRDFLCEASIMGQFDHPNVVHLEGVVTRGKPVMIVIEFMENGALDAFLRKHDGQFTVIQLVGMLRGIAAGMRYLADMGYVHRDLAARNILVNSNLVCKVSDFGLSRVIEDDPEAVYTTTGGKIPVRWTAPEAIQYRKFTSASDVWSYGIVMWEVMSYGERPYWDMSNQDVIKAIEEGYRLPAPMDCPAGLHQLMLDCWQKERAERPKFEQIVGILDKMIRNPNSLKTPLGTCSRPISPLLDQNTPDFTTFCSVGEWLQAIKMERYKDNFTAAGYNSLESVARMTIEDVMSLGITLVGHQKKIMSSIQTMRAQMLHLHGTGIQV
# UniProt Q9BYP7, sequence (whole entry, looked up): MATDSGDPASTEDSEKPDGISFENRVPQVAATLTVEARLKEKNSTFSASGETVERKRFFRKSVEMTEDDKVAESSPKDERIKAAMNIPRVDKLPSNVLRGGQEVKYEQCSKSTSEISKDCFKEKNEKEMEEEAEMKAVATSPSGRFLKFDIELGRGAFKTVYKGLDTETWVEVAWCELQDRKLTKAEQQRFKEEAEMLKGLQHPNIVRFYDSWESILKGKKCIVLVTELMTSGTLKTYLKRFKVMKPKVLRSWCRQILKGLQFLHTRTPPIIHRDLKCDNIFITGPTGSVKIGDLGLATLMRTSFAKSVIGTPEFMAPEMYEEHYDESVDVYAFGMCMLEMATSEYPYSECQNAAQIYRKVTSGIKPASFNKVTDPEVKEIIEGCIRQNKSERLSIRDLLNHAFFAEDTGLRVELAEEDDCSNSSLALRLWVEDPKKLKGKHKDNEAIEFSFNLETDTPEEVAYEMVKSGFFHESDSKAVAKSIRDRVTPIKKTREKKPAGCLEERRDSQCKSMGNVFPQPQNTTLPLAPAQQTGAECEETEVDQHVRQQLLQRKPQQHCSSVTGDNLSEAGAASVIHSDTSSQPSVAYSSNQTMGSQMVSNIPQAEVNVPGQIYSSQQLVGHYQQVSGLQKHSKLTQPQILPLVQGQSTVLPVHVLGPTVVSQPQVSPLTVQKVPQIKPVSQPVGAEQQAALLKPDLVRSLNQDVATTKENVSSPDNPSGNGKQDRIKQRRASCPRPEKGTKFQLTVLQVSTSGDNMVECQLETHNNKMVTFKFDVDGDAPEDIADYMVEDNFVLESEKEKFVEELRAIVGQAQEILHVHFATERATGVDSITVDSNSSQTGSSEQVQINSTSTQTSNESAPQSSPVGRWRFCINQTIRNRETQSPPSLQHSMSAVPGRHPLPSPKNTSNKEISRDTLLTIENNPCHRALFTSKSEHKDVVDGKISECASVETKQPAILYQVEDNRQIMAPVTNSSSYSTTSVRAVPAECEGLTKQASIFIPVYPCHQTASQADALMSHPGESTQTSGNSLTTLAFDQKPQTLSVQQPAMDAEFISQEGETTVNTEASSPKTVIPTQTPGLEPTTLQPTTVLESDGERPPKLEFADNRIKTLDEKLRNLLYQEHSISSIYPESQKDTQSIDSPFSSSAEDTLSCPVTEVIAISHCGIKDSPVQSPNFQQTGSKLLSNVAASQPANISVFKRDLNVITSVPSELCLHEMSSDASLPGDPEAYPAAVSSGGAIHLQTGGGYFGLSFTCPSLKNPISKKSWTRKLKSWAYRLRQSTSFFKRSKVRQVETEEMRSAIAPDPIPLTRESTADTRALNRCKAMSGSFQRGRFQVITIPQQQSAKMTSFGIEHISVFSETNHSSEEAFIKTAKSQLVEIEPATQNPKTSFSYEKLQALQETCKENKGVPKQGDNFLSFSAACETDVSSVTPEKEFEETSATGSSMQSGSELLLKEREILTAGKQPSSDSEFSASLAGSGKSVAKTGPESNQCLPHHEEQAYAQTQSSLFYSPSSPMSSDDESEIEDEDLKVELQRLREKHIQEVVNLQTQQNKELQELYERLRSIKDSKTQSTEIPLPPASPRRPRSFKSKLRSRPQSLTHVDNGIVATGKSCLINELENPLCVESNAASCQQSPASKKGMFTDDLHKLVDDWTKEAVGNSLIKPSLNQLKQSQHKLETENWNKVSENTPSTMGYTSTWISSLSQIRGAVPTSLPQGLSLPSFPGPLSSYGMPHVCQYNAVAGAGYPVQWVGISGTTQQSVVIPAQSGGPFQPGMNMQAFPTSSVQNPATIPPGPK
# UniProt Q9UBF8, sequence (whole entry, looked up): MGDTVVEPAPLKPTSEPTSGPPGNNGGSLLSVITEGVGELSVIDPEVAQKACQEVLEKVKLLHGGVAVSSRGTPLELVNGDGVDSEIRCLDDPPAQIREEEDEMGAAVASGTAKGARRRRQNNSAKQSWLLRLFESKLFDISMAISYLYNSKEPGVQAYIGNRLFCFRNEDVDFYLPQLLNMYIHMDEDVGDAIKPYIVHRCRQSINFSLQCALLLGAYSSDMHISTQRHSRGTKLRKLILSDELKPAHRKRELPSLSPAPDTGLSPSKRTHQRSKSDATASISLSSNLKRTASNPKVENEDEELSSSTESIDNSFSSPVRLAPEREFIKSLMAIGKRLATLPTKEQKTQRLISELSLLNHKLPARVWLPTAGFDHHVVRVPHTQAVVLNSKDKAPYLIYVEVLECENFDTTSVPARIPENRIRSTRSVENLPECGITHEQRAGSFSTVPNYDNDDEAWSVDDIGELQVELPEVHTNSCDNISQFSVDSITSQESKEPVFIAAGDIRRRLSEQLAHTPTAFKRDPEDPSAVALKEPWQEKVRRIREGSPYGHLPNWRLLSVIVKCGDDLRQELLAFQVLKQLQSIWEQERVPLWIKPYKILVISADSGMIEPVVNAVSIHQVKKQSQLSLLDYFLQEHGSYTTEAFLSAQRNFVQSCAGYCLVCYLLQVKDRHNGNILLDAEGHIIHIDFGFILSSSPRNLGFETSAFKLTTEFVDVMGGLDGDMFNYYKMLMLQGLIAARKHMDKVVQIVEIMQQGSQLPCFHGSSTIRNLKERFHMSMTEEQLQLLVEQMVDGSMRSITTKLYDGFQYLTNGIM

# Series 1
# SMILES: CCS(=O)(=O)c1cc2cc(C[C@@](O)(CC(C)(C)c3ccc(F)cc3C(N)=O)C(F)(F)F)[nH]c2cn1
# Observed: cell-free assay
# Technique: competition with immobilised ligand
# Concentration: 1 µM
target,remaining binding [%]
"DAPK1 (Homo sapiens, UniProt P53355)",0
"BRAF (Homo sapiens, UniProt P15056, V600E)",100
"EGFR (Homo sapiens, UniProt P00533, del747-752/P753S)",69
"Tyrosine-protein kinase JAK1, JH2 (JAK1, Homo sapiens, UniProt P23458)",90
"MYLK (Homo sapiens, UniProt Q15746)",93
"Tyrosine-protein kinase ABL1, non-phosphorylated (ABL1, Homo sapiens, UniProt P00519, F317L)",90
"WNK3 (Homo sapiens, UniProt Q9BYP7)",100
"Insulin receptor (INSR, Homo sapiens, UniProt P06213)",86
"LRRK2 (Homo sapiens, UniProt Q5S007, G2019S)",100
"EPHA7 (Homo sapiens, UniProt Q15375)",94
"EPHA4 (Homo sapiens, UniProt P54764)",95
"CAMK2G (Homo sapiens, UniProt Q13555)",77
"BRAF (Homo sapiens, UniProt P15056)",69
"KIT (Homo sapiens, UniProt P10721, D816V)",90
"NLK (Homo sapiens, UniProt Q9UBE8)",100
"CDK11B (Homo sapiens, UniProt P21127)",77
"NTRK3 (Homo sapiens, UniProt Q16288)",82
"PI4KB (Homo sapiens, UniProt Q9UBF8)",100
"BRSK2 (Homo sapiens, UniProt Q8IWQ3)",72
"CAMK4 (Homo sapiens, UniProt Q16566)",100

# Series 2
# Host: human
# Matrix: microsomes or S9
# Concentration: 2 µM
# Time: 0.5 h
Structure (SMILES),remaining compound [%]
Cc1ccc2cc(CNc3ccc4c(c3)C(=O)NC4)ccc2n1,62.6
CCOC(=O)c1cnn(-c2ccc(C(=O)O)cc2)c1N,16.2
O=C(OCC(=O)c1c(-c2ccccc2)[nH]c2ccccc12)c1ccccc1NCCO,56.6
COc1cc(=O)[nH]cc1C(=O)N1CCCCC1c1ccccc1 (stereo not shown),89.5
O=C(Nc1c(O)c(Cl)cc(Cl)c1Cl)c1nc(=O)[nH][nH]1,12.8
O=C(CN1CCCCCC1)NCC12CCCC=C1NC(=O)CC2 (stereo not shown),81
C/C(=C\COc1ccc2ccc(=O)oc2c1)CC/C=C(\C)CCC(O)C(C)(C)O (stereo not shown),> 99
CN(Cc1cccc2cnccc12)c1cnccn1,32.7
CC(C)n1/c(=N/C(=O)c2ccccc2Br)c(C#N)cc2c(=O)n3ccccc3cc21,18.3
Cc1cc2cc(CCNC(=O)CC(C)(C)C)c(=O)[nH]c2cc1C,87.1
COc1ccc2c[nH]c(=O)c(-c3nc4ccccn4c3Nc3ccc(OC)c(OC)c3)c2c1,87.9

# Series 3
# Target: Casein kinase I isoform gamma-1 (CSNK1G1, Homo sapiens, UniProt Q9HCP0)
# UniProt Q9HCP0, sequence (whole entry, looked up): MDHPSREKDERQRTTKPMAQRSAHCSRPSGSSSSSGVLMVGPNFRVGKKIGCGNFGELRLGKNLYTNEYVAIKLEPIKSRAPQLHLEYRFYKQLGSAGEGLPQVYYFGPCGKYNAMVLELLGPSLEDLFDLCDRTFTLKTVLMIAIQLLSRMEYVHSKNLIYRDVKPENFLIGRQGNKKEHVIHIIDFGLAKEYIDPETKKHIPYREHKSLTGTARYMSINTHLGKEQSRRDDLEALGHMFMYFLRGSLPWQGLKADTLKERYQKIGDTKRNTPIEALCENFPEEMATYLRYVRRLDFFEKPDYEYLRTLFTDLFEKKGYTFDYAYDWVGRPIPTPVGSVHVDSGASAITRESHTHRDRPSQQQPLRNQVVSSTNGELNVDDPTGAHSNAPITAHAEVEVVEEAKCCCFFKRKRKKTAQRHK
# Observed: enzyme activity
# Action: inhibitor
# Concentration: 0.5 µM
# Reference: control
SMILES,remaining activity [%]
CN(C)S(=O)(=O)c1ccc2c(c1)/C(=C/c1cc3c([nH]1)CCCC3)C(=O)N2,101
O=C1NC(=O)c2c1c1c3ccccc3[nH]c1n1cncc21,68.4
CN1CCN(c2ccc3nc(-c4c(N)c5c(F)cccc5[nH]c4=O)[nH]c3c2)CC1,96.4
COc1ccc(COc2ccc(Cc3cnc(N)nc3N)cc2OC)cc1,92.7
COc1cccc(-c2cc(=O)c3ccccc3o2)c1N,83.5
O=C1Cc2c([nH]c3ccc(Br)cc23)-c2ccccc2N1,102
CCCCc1c(-c2ccc(OC)cc2)[nH]c2nccnc12,93.3
Cc1ccc(S(=O)(=O)/C=C/C#N)cc1,101
O=c1cc(N2CCOCC2)oc2c(-c3ccccc3)cccc12,104
O=Nc1c(-c2c(O)[nH]c3cc(Br)ccc23)[nH]c2ccccc12,87.6
c1ccc(-c2n[nH]c3c2oc2ccccc23)cc1,91.6
Cc1cc(Nc2cc(N3CCN(C)CC3)nc(Sc3ccc(NC(=O)C4CC4)cc3)n2)[nH]n1,99.1

# Series 4
# Organism: Sarcocystis neurona
# Observed: parasite growth
# Concentration: 10 µM
# Time: 96 h
# Notes: first screen
# Reference: untreated
Structure (SMILES),log2 fold change
Cn1cc[nH]c1=S,0.0248
CC(C)c1ccc2oc3nc(N)c(C(=O)O)cc3c(=O)c2c1,2.02
CCOC(=O)[C@H](CCc1ccccc1)N[C@@H](C)C(=O)N1CCC[C@H]1C(=O)O,0.1
CCC(=O)O[C@]1(C(=O)SCF)[C@H](C)C[C@H]2[C@@H]3C[C@H](F)C4=CC(=O)C=C[C@]4(C)[C@@]3(F)[C@@H](O)C[C@@]21C,-0.52
O=C(C1CCCCC1)N1CC(=O)N2CCc3ccccc3C2C1 (stereo not shown),-0.45
COC1=C(OC)C(=O)C(CCCCCCCCCCO)=C(C)C1=O,0.37
COc1ccccc1OCC(O)COC(N)=O (stereo not shown),0.13
COc1ccc(-c2cc(=O)c3c(OC)c(OC)c(OC)c(OC)c3o2)cc1OC,-0.52
Cc1nc2ccc(CN(C)c3ccc(C(=O)N[C@@H](CCC(=O)O)C(=O)O)s3)cc2c(=O)[nH]1,0.11
CS(=O)(=O)c1ccc(-c2cc(Br)sc2-c2ccc(F)cc2)cc1,-0.44
O=C(O)COCCN1CCN([C@H](c2ccccc2)c2ccc(Cl)cc2)CC1,0.16
O=C(O)Cc1ccccc1Nc1c(Cl)cccc1Cl,0.09

# Excerpt of the above (series 4):
Structure (SMILES),log2 fold change
O=C(C1CCCCC1)N1CC(=O)N2CCc3ccccc3C2C1 (stereo not shown),-0.45
COC1=C(OC)C(=O)C(CCCCCCCCCCO)=C(C)C1=O,0.37
COc1ccccc1OCC(O)COC(N)=O (stereo not shown),0.13
COc1ccc(-c2cc(=O)c3c(OC)c(OC)c(OC)c(OC)c3o2)cc1OC,-0.52
Cc1nc2ccc(CN(C)c3ccc(C(=O)N[C@@H](CCC(=O)O)C(=O)O)s3)cc2c(=O)[nH]1,0.11
